Results of several laboratories.
Each line is one published result; not all experiments were run side by side. ± gives the spread as reported.
CNR1: Cannabinoid receptor 1 (CNR1, Homo sapiens, UniProt P21554)
UniProt P21554, sequence (whole entry, unmodified, looked up): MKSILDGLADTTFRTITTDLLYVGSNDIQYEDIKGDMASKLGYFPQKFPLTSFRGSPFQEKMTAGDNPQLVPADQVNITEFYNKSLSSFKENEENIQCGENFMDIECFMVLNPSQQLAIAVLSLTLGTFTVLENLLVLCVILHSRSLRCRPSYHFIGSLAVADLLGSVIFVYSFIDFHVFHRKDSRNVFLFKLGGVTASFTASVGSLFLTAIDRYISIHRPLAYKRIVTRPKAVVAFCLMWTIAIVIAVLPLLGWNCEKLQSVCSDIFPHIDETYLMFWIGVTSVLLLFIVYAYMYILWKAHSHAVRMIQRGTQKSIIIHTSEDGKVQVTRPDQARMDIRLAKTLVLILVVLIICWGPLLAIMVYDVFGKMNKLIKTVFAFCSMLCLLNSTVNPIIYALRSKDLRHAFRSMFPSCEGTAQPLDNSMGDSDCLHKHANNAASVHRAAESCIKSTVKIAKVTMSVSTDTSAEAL
tmk: Thymidylate kinase (tmk, Mycobacterium tuberculosis, UniProt P9WKE1)
UniProt P9WKE1, sequence (whole entry, looked up): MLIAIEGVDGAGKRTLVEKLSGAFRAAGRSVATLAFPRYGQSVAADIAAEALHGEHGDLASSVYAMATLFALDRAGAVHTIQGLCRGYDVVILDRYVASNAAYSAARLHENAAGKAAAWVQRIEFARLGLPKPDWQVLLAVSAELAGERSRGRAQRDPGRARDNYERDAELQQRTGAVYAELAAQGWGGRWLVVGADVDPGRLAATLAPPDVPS
UniProt Q8NEB9, sequence (whole entry, looked up): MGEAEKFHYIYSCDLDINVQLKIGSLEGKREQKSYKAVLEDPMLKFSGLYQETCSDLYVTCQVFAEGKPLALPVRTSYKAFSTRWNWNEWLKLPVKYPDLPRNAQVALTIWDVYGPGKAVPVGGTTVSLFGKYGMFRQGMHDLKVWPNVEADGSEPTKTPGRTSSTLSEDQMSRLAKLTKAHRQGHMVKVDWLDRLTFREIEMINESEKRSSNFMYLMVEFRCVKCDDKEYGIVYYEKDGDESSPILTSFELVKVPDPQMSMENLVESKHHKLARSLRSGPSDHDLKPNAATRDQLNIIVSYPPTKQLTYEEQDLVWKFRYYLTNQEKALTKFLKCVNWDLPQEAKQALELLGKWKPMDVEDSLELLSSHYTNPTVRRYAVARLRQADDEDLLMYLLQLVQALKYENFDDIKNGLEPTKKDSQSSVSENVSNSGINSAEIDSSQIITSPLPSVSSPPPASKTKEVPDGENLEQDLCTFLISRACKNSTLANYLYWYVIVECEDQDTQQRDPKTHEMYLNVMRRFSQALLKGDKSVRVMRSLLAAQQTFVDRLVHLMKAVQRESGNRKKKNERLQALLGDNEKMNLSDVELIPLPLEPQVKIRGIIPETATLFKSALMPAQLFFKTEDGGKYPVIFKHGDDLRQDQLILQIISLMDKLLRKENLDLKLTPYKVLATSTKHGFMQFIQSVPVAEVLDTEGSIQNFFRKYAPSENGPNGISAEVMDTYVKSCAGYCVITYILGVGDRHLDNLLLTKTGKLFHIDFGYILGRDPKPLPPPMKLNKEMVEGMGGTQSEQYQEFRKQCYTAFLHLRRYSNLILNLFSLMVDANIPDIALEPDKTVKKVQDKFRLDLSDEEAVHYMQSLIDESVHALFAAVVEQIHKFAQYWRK
UniProt Q14012, sequence (whole entry, looked up): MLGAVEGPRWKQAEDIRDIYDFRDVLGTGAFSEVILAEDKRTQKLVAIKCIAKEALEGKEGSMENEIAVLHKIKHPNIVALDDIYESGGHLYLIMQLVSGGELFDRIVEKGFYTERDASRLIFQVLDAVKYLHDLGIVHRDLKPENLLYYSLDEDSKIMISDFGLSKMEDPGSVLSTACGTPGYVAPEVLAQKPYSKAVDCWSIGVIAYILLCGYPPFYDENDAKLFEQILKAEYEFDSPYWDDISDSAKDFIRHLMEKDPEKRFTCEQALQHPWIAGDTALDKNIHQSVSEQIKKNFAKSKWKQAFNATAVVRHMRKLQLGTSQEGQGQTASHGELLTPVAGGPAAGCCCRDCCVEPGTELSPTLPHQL
UniProt Q86Z02, sequence (whole entry, looked up): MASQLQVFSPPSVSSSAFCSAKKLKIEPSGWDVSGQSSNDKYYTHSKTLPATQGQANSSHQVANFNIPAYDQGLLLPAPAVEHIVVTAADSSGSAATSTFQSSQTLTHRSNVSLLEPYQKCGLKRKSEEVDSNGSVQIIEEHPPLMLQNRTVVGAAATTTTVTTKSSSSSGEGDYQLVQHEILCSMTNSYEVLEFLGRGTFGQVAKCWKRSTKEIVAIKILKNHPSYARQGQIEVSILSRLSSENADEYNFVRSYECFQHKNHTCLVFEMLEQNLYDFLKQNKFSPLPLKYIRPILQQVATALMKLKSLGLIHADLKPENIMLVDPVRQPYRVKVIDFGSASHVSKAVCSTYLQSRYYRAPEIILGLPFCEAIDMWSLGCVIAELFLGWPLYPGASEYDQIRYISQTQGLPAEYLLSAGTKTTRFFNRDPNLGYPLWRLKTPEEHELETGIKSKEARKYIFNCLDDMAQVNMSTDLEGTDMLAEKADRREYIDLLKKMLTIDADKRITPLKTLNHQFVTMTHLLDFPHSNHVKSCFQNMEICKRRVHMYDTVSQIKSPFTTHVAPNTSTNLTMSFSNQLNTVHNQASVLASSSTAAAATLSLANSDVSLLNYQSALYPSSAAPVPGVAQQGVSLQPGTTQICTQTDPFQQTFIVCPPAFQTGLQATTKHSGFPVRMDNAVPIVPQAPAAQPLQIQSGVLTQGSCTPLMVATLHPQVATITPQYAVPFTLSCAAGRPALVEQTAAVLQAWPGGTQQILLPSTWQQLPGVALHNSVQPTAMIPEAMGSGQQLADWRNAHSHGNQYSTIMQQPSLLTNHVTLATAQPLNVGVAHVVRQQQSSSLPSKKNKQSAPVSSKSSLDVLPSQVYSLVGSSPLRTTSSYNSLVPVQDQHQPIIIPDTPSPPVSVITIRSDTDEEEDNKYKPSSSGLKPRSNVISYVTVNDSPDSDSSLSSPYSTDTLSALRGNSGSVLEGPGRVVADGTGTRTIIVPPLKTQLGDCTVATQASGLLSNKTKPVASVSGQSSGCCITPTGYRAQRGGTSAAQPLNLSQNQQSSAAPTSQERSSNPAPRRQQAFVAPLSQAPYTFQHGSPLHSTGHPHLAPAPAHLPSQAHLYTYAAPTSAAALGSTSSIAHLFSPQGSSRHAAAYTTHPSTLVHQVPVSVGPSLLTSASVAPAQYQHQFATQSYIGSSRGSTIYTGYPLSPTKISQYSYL
UniProt P80192, sequence (whole entry, looked up): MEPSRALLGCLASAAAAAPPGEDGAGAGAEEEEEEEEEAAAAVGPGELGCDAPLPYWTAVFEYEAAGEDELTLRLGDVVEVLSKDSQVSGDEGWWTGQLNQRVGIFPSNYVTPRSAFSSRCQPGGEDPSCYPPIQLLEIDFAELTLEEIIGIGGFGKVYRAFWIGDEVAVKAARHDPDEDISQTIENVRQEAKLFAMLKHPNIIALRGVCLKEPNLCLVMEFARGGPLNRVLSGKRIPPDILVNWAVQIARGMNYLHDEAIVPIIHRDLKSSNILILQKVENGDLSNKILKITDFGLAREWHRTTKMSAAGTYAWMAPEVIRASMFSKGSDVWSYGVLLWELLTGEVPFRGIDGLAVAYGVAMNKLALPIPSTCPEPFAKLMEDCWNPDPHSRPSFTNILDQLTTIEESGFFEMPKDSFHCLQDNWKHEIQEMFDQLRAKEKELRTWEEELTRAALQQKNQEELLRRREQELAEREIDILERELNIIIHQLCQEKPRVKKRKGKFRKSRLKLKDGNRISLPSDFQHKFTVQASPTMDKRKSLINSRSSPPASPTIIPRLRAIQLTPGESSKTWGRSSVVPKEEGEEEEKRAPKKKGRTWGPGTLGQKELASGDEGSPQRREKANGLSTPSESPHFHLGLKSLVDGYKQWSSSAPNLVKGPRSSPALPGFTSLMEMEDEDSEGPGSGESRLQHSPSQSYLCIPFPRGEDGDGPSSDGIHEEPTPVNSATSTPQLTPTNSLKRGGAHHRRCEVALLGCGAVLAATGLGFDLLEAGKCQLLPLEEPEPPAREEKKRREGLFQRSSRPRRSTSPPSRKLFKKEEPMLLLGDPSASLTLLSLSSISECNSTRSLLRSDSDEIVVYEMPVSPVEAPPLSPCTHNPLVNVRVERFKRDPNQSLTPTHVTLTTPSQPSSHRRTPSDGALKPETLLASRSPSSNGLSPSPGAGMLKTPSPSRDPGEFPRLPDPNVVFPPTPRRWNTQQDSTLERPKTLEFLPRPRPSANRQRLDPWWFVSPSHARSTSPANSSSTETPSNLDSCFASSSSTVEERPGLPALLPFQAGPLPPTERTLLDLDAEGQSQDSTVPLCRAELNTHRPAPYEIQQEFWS
UniProt P25021, sequence (whole entry, looked up): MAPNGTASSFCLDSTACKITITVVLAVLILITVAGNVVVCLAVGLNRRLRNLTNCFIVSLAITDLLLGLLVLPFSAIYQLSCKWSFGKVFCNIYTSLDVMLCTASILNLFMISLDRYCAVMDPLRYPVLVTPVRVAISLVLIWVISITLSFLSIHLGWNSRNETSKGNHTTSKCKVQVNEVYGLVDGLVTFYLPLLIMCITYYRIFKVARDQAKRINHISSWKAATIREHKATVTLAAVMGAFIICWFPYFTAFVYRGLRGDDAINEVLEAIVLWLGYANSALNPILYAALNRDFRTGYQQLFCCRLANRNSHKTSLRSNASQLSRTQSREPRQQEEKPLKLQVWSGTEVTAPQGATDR

CCCCCn1cc(C(=O)c2cccc3c2CC(C)(C)C3)c2ccccc21
Emax (CNR1; GαoA activation, agonist, BRET; reference: reference agonist): 64.3 ± 3.5%

Cc1ccc(C(=O)Nc2ccc(CN3CCN(C)CC3)c(C(F)(F)F)c2)cc1C#Cc1cnc2cccnn12
bound fraction (SRC (Gallus gallus, UniProt P00523); concentration not given): 97%

Cc1ccc2c(C(C[N+](=O)[O-])c3cccs3)c(-c3ccccc3)[nH]c2c1 (stereo not shown)
Emax (CNR1 (Homo sapiens, UniProt P21554, I245M); Gαi1-γ2 dissociation, BRET): 140 ± 9.45%

O=C1NC(=O)c2c1c1cc(F)c[n+]3c1c1c2c2cc(O)ccc2[n]1[Ru-4]312([N]=C=S)[S+]3CC[S+]1CC[S+]2CC3 (stereo not shown)
remaining activity (MAP3K9 (Homo sapiens, UniProt P80192); enzyme activity; 100 nM, human enzyme, added: 10 µM ATP; reference: untreated): 74%

N#Cc1cn([C@@H]2O[C@H](CSCC[C@H](N)C(=O)O)[C@@H](O)[C@H]2O)c2ncnc(N)c12
Hill slope (Replicase polyprotein 1ab, nsp10-nsp16 complex (rep, Human coronavirus 229E, UniProt P0C6X1)): -1.1

CCCCCn1cc(C(=O)c2ccc3c(c2)CC(C)(C)C3)c2ccccc21
Emax (CNR1 (Homo sapiens, UniProt P21554, I267L/L193I/L359V); cAMP inhibition, agonist, CAMYEL BRET biosensor; added: forskolin 10 µM; reference: reference agonist at wild type): 100 ± 3.3%

CCOC(=O)C1=C(C)NC(=NN=C2C(=O)Nc3ccc(C)cc32)NC1c1ccc(F)cc1 (stereo not shown)
inhibition (tmk; enzyme activity, inhibitor, absorbance; 10 µg/mL): 85.9%

CN(C)[C@H]1C[C@@]23CC[C@@]4(O2)C(=CC[C@]2(C)[C@@H](c5ccc6ccncc6c5)CC[C@H]24)C=C3[C@@H](O)[C@@H]1O
inhibition (PIK3C3 (Homo sapiens, UniProt Q8NEB9); ATP probe labelling, inhibitor, KiNativ profiling; 0.1 µM): 1.2%

O=C(NC1CCN(c2ncnc3[nH]cnc23)CC1)c1cccc(NS(=O)(=O)c2ccc(C(F)(F)F)cc2)c1
inhibition (Replicase polyprotein 1ab, nsp14 (rep, Human coronavirus 229E, UniProt P0C6X1); enzyme activity; 12.5 µM): 52.1%

CC(C)[C@H]1NC(=O)C[C@H]2/C=C/CCSSC[C@@H](NC1=O)C(=O)N[C@H](Cc1cccc3ccccc13)C(=O)NCC(=O)O2
inhibition (HIPK1 (Homo sapiens, UniProt Q86Z02); enzyme activity, inhibitor; 10 µM): 0.6%

O=C1NC2(CC2)COc2ncc(F)cc2[C@H]2COCCN2c2ccn3ncc1c3n2
serum hepatic lipase activity (Sprague-Dawley rat, male, serum; oral, 20 mg/kg/day, end of treatment, 4-week subacute toxicity): 3.5 ± 0.5 U/L

CCOC(=O)C1=C(C)NC(=NN=C2C(=O)Nc3ccccc32)NC1c1ccc(F)cc1 (stereo not shown)
inhibition (tmk; enzyme activity, inhibitor, absorbance; 0.1 µg/mL): 40.6%

CS(C)(=O)=Nc1ccc(-c2ccc(-c3nc4cc(O[C@@H]5CO[C@H]6[C@@H]5OC[C@H]6O)[nH]c4cc3F)cc2)cc1
inhibition (CAMK1 (Homo sapiens, UniProt Q14012); enzyme activity, inhibitor; 10 µM): 15%

Nc1ccc(/C=C/C(=O)N2CCc3c(oc4c(-c5ccc(F)cc5)cc(-c5ccc(C(=O)N6CCC(F)(F)CC6)cn5)cc34)C2)cn1
remaining binding (PDGFRB (Homo sapiens, UniProt P09619); binding, competition with immobilised ligand; 1 µM): 98%

CCCCCn1cc(C(=O)c2ccc3ccccc3c2)c2ccccc21
Emax (CNR1; Gαi1 activation, agonist, BRET; reference: reference agonist): 103 ± 9.9%

Cc1sc2c(c1C)C(c1ccc(Cl)cc1)=NC(CC(=O)OC(C)(C)C)c1nnc(C)n1-2 (stereo not shown)
remaining binding (HRH2 (Homo sapiens, UniProt P25021); ligand displacement, radioligand; 1 µM): 127%
